Published values gathered from unrelated publications.
Lines come from different studies, so protocols differ. ± marks the error that the study gave.

Structure (SMILES)	organism	test	test system	conditions	IC50 [µM]
O=C(/C=C\n1cnc(-c2cc(C(F)(F)F)cc(C(F)(F)F)c2)n1)NNc1ccccn1	herpes simplex virus 1	viral replication	fibroblasts, K26, GFP-expressing		> 10
CN(C)[C@@H]1C(O)=C(C(N)=O)C(=O)[C@@]2(O)C(O)=C3C(=O)c4c(O)ccc(Cl)c4[C@@](C)(O)[C@H]3C[C@@H]12	Trichomonas gallinae	CCK-8	trophozoites	24 h	16.5
C=CC(=O)N1CC/C(=C\c2ccc(F)c([N+](=O)[O-])c2)C(=O)/C(=C/c2ccc(F)c([N+](=O)[O-])c2)C1	herpes simplex virus 1	viral replication	K26, GFP-expressing, 3D bioprinted skin, submerged		6.3
Cc1cc(=O)c(-c2ccc(Oc3ccc(Cl)cc3Cl)cc2)c(C)[nH]1	Plasmodium yoelii		17XL	384-well	0.564 ± 0.045
Cc1ncc([N+](=O)[O-])n1CCOC(=O)c1ccccc1	Trichomonas gallinae	CCK-8	trophozoites	24 h	5.08
CN(C)c1ccc(C=CC(=O)NC(=O)c2ccccc2O)cc1	Plasmodium yoelii		17XL	384-well	0.205 ± 0.058
CO[C@H]1/C=C/O[C@@]2(C)Oc3c(C)c(O)c4c(c3C2=O)C2=NC3(CCN(CC(C)C)CC3)NC2=C(NC(=O)/C(C)=C\C=C\[C@H](C)[C@H](O)[C@@H](C)[C@@H](O)[C@@H](C)[C@H](OC(C)=O)[C@@H]1C)C4=O	Mycobacteroides abscessus	bacterial growth	subsp. massiliense 095 clinical isolate	mixed morphotype	0.011
Cc1[nH]c2ccc(C#N)cc2c(=O)c1Br	Plasmodium yoelii		17XL	384-well	0.86 ± 0.761
O=C(Nc1ccc(Oc2ccc(Cl)cc2)c(Cl)c1)c1cc(I)cc(I)c1O	Trichomonas gallinae	CCK-8	trophozoites	24 h	14.4
